Results gathered from unrelated publications.
Each numbered part is a random draw from the data of one study; scales do not carry over between parts. Changes are numbered by the printed parent chain.

Block 1 — technique: protein binding microarray; form: double-stranded DNA, one strand shown; sample: in vitro; tested at: not given; relative to: not given; reading: higher = stronger binding; endpoint: E-score
Target: Histone acetyltransferase KAT6A, winged helix 1, GST fusion (KAT6A, Homo sapiens, UniProt Q92794, residues 1-85)
Setting: 8-mer, flanks averaged, mean of 2 arrays, mostly near background
Residues (chain): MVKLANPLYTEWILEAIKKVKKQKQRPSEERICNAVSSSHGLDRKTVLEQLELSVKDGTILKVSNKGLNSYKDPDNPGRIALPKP
Strand = ACGTAACG; value = 0.0677
Strand = GAAGGTGC; value = -0.0679
Strand = AGGGTGTG; value = -0.323
Strand = CATTCTGG; value = -0.212
Strand = ACATTACA; value = -0.0384
Strand = ATCCCAAG; value = -0.18
Strand = CCCAAGCC; value = 0.108
Strand = ACCCGAAT; value = 0.0702
Strand = AAACTACC; value = -0.0507
Strand = GCGGGAAA; value = 0.267
Strand = ATCGCGAC; value = 0.206
Strand = AAGCTACT; value = -0.126
Strand = GTCTCGTA; value = -0.128
Strand = AAGGCGCG; value = 0.375
Strand = CCCGTTTA; value = 0.154
Strand = GATTATTA; value = -0.0334
Strand = ACTACTCA; value = -0.176
Strand = AACAGCTG; value = -0.176
Strand = CAAACGTA; value = -0.0844
Strand = AAATTCAG; value = -0.126
Strand = TATTGACA; value = -0.0282

Block 2 — technique: protein-binding microarray; form: double-stranded DNA, one strand shown; sample: in vitro; tested at: not given; reading: higher = stronger binding; endpoint: E-score
Target: TATA-box-binding protein 1 (TBP1, Arabidopsis thaliana, UniProt P28147, residues 1-200, full length assumed)
Setting: k-mer, scored over probes, only values ≥0.25
Construct (chain): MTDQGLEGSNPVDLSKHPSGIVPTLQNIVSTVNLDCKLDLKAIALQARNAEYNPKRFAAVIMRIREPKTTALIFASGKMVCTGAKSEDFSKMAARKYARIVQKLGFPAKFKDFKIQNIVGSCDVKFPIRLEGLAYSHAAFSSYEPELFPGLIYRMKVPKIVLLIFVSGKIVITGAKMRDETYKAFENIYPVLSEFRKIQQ
Strand = CTTAAAG; value = 0.287
Strand = ATATGTA; value = 0.412
Strand = CTATTAA; value = 0.379
Strand = GCCTTAA; value = 0.266
Strand = ACTTTAA; value = 0.369
Strand = AATTTAA; value = 0.445
Strand = GATTTAA; value = 0.395
Strand = ACGTATA; value = 0.313
Strand = AAGTATA; value = 0.375
Strand = ATAAGTA; value = 0.372
Strand = TGTAAAA; value = 0.264
Strand = AATTAAA; value = 0.415
Strand = ATAATCA; value = 0.286
Strand = GATATTA; value = 0.373

Block 3 — technique: RNA Bind-n-Seq; form: RNA; sample: in vitro; tested at: 365 nM; relative to: no-protein control; reading: higher = stronger binding; endpoint: RBNS enrichment (R)
Target: RNA binding protein fox-1 homolog 2, RRM domain, GST-SBP tag (RBFOX2, Homo sapiens, UniProt O43251-10, residues 100-194)
Setting: natural RNA segment, single round, ends assumed
Constant ends, left off below: GGGAGUUCUACAGUCCGACGAUC … UGGAAUUCUCGGGUGCCAA
Construct (chain): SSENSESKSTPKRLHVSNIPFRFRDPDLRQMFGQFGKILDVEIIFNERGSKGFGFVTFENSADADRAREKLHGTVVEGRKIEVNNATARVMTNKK
Strand = CGUUCUGUUAACCUUUGUACCAAAUAGCAAUAAAAACGAGUGGGAGCCGUUGGGCGGUGCGCCAGAGGGACUGAAAUCUAUUUUGUCCCUAAAUAUUUUUUUAAAGAAUU; value = 0.49
Strand = AGCCAGACCAAUAAAAAGCGUCUGUCCCACUCUGCUAAGCCUGGUUUUCUUGAGCAGAGGGAUGGAACAGAGGGUGAGAGAGGCAGUGGCCGUCUCCACCUCAGCUCCUG; value = 0.376
Strand = GGAAGCUGGUGAAGUCCUGUUCUUAUUAUGAAUCCAUUCAUUCAAGAAAAUAGCCUGUUGCACAUUUCUCUGUUUCUUUGUGCCCUGCAAGCCCUGCCCCCAAGACCUAG; value = 3.17
Strand = AAGAGAAUUGCAGGGUCUUCUGCCCCUUUUCUAUCUGCCUGUAGCUCUCCAUUUUGAUUAAAUAGUUCAUUGCAUUCUGAAGUUUGGGGAUGUUUUUUCUUUCCUUUUCU; value = 1.86
Strand = CUCUUCUCCUGUGUUCCCUUUGAGUCCAGUGUGGGACACGGUUUAACUGUCCCAGCGACAUUUCUCCAAGUGGAAAUCCUAUUUUUGUAGAUCUCCAUGCUUUGCUCUCA; value = 0.389
Strand = AGCCAUGGUGGCCCUGGCCUUCUUUGUGGUACAGAUCAGCAAGGCCAAGAGCCGGCCGAAGCGGAGGAGGCCCAGGGCAAAGCGUCCACAACUUGCACAGCAGGCCCACC; value = 0.391
Strand = GGACCAGGUCUUCUUAUGCAGUGACAAGAGUGCGUAGUGUUUUCUUUGCAUACUGUUCAUCGCAGUAGCAACAAAAUUGCAAUCAGCCAACAGGCUUUAAAACGUCCCUG; value = 0.225
Strand = AAAAACAACAACACAAUAACACUAAAAUUUUAGGCACUCUUAAAUGAUCUGCCUCUAAAAGCGUUGGAUGUAGCAUUAUGCAAUUAGGUUUUUCCUUAUUUGCUUCAUUG; value = 0.355
Strand = CAGGCCUUCAGGGUUAGAUCAUCUGUCAAGUGUCACCGAUGGGGACUUCUCAUGACCAGAGGGCUCUGCACCAGCAUCCCCAAAGAGCCAAGAAGGCCACCAUGCUUUUA; value = 0.279
Strand = UUGAAAUGAAAACUAAGAGUUGUAAAACAAAGUAUUUUCUUGGGAAUAUUACUUUAACAUUCAGAUGGAUCAUAACUAAUUCGACUAGGGUGUUUUUCCUGAGUAGGAGU; value = 0.362
Strand = UGGGACAGGACACACCAGAGCUAAGGCCGCAUUGCUUUUGUCAAAGUCUCCUCCUCUGACUGGUUUCAGGAAAUCAAGAAGUUUGAAUCACAUACUCAUUUUACUUGAAA; value = 0.44
Strand = UUAUUUUUAGCCAUGCACUGUUGUGAGGAAAAAUUACCUGUCUUGACUGCCAUGUGUUCAUCAUCUUAAGUAUUGUAAGCUGCUAUGUAUGGAUUUAAACCGUAAUCAUA; value = 0.633

Block 4 — technique: DHFR PCA, deep sequencing; sample: yeast; added: (+)-ABA 58 µM; relative to: wild-type fitted maximum; reading: higher = stronger binding; endpoint: relative binding score
Target: ABI1, truncated, D143A, DHFR fusion (Arabidopsis thaliana)
Setting: methotrexate growth selection, single substitutions
Parent: PYL1, truncated, DHFR fusion (Arabidopsis thaliana); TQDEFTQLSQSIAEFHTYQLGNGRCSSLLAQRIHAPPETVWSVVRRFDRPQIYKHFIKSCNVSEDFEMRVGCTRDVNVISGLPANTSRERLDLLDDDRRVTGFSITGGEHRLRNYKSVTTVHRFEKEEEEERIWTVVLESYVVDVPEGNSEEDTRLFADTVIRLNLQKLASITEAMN; partner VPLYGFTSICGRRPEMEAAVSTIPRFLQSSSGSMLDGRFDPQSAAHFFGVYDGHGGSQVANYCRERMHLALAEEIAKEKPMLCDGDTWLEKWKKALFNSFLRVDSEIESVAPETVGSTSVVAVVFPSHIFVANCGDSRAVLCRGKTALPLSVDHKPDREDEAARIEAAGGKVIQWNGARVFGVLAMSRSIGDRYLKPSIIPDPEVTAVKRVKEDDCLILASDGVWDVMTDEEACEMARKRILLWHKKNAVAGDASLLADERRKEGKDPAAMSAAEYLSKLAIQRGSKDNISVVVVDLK
Change = G71L; value = 10.6%
Change = I172Y; value = 77.8%
Change = D3E; value = 86.9%
Change = N22H; value = 96.8%
Change = D97E; value = 94.8%
Change = I79P; value = 18.9%
Change = S11N; value = 64.3%
Change = T1S; value = 84.4%
Change = T154Q; value = 0.597%
Change = V100A; value = 92.6%
Change = S87F; value = 3.31%
Change = T160H; value = 73.5%
Change = S150P; value = 16.3%
Change = I79E; value = 59.8%

Block 5 — technique: universal PBM; form: double-stranded DNA, one strand shown; sample: in vitro; tested at: 600 nM; reading: higher = stronger binding; endpoint: E-score
Target: Sal-like protein 4, full length isoform A (SALL4, Homo sapiens, UniProt Q9UJQ4, residues 1-1053)
Chain of UniProt Q9UJQ4 (whole entry, looked up): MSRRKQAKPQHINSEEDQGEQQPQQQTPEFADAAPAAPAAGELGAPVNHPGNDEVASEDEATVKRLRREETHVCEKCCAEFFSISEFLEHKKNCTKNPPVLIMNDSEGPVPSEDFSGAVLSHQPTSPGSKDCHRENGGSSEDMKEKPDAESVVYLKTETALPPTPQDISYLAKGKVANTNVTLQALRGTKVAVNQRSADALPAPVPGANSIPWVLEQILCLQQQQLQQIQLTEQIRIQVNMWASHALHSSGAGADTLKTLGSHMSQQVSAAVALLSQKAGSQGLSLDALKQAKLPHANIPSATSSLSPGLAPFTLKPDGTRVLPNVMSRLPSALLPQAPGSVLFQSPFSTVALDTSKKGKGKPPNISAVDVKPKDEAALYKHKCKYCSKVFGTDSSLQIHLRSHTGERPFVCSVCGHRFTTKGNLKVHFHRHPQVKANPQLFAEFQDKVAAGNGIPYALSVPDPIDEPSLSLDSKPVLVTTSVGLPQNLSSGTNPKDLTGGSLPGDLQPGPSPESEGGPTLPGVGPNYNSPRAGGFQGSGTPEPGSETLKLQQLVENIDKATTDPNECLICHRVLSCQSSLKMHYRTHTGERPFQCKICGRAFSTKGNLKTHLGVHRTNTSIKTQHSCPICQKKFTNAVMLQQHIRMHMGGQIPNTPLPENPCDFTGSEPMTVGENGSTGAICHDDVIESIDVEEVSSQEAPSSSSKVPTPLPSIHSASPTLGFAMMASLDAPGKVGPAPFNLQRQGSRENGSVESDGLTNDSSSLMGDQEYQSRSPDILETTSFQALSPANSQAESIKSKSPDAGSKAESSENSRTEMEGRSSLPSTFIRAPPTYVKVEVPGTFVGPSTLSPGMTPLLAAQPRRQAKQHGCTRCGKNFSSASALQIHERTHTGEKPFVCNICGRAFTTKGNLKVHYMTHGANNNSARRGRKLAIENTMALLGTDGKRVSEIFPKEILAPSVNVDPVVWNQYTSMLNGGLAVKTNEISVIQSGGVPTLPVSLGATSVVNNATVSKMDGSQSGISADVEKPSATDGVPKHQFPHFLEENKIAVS
Setting: 8-mer, flanks averaged, mean of replicates
Strand = CAGAAACC; value = -0.102
Strand = AACCTTTA; value = 0.12
Strand = AAAACTGG; value = 0.0306
Strand = CGCCACAC; value = -0.219
Strand = CAAAATAA; value = 0.333
Strand = GCTACTAA; value = 0.0488
Strand = CGGAAAAA; value = 0.203
Strand = ATTGGATA; value = 0.186
Strand = CGTCTTTA; value = 0.0708
Strand = ATGGAGCA; value = -0.03
Strand = AACATGCG; value = 0.0611
Strand = CCTGACTC; value = -0.187
Strand = AGAGGACG; value = -0.121
Strand = ACGGGCCG; value = -0.395
Strand = GCTGCACC; value = -0.277
Strand = AAACCTTA; value = 0.18
Strand = GCAAATGC; value = -0.11
Strand = CCGCTGGC; value = -0.294
Strand = TCTACGAA; value = 0.0396
Strand = AAAGAGTG; value = -0.0256
Strand = TAATCCCA; value = 0.0626
Strand = ACATCAAA; value = 0.186
Strand = GAATCATA; value = 0.325

Block 6 — target: CCND3, cyclin fold, Cln2 fusion (human); technique: yeast growth competition, sequencing; sample: yeast; setting: weak parent motif; relative to: not given; reading: higher = stronger binding; endpoint: normalised enrichment score
Parent: RBL2 docking peptide (human); STTRRRLFVENDS
Change = L7E; value = 0.0801
Change = D12L; value = 0.0158
Change = L7C; value = 0.0839
Change = N11T; value = 0.144
Change = E10N; value = 0.14
Change = S13M; value = 0.112
Change = R4N; value = 0.0696
Change = N11H; value = 0.0942
Change = E10C; value = 0.112
Change = S1F; value = 0.0572
Change = R6W; value = 0.091
Change = D12H; value = 0.144
Change = V9L; value = 0.0653
Change = T3I; value = 0.066
Change = D12Y; value = 0.177
Change = T2C; value = 0.095
Change = S1M; value = 0.111

Block 7 — technique: protein-binding microarray; form: double-stranded DNA, one strand shown; sample: in vitro; tested at: 2200 nM top; setting: 60-bp whole probe; added: salmon DNA 0.4 mg/ml; relative to: random background probes; reading: higher = stronger binding; endpoint: fitted relative affinity; constant ends, left off below: GCCTAGCAC … GTCTTGATTCGCTTGACGCTGCTG
Target: Interferon regulatory factor 7, full length, phosphomimetic (IRF7, Homo sapiens, UniProt Q92985, residues 1-503, S471D/S472D/S475D/S476D/S477D/S483D/S484D/S487D)
Chain of UniProt Q92985 (whole entry, unmodified, looked up): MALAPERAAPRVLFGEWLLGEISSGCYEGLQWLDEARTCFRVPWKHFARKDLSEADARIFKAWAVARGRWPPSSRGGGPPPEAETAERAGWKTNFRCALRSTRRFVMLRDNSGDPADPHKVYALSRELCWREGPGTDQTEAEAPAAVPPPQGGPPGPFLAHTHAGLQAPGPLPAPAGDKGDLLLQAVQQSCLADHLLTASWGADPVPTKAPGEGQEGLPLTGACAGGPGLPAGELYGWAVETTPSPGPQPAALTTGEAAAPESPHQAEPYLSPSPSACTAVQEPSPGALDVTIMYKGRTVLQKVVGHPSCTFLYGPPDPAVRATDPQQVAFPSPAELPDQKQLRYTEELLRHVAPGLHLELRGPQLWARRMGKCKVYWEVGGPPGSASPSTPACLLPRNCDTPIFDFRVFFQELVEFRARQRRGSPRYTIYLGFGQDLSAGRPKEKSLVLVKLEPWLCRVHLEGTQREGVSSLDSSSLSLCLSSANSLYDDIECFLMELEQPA
Strand = GACGGTATCGGTTTCGGAACGTGCTAG; value = 4.4 z-score
Strand = GACGAACTGGGGTCTGGAGACGTGCTA; value = -0.236 z-score
Strand = GATGGTATCGGTCTCGGGACGTGCTAG; value = 0.152 z-score
Strand = GACGATATCAGCCTGGAGACGTGCTAG; value = 0.167 z-score
Strand = TTAGATTTAAGTCTCGATTAGTGCTAG; value = -0.214 z-score
Strand = TCAACTATTGCTTCCTCACTGTGCTAG; value = 1.76 z-score
Strand = GACGATATCGGGACTGGAAACGTGCTA; value = -0.161 z-score
Strand = TTAGGTCTCCTTCTCCTCTAGTGCTAG; value = 0.992 z-score
Strand = GACGGACTGGGTATCGGGTCGTGCTAG; value = -0.539 z-score
Strand = TTAGTACTGGGTTTCGGTTAGTGCTAG; value = 4.64 z-score
Strand = TTAGATATCGGACTGGATTAGTGCTAG; value = -0.084 z-score
Strand = TACGGTATCGGACTGGGGACGTGCTAG; value = 0.0123 z-score
Strand = TGGCCTGTGCTATTTATAAGGGTGCTA; value = -0.101 z-score
Strand = TCACCTTTTCACTTTACACTGTGCTAG; value = 4.36 z-score
Strand = GACGCACTGGACTTTCGGGACGTGCTA; value = 2.34 z-score
Strand = CTAAAACTCTTTATTTAAGCGTGCTAG; value = -0.433 z-score
Strand = TCAGGGCTCTCTTCTGCTACTGTGCTA; value = -0.0359 z-score
Strand = GACGGTTTCGGTTCCAGGACGTGCTAG; value = 11 z-score
Strand = TTAGGTTTCCTTTCCCTTAAGTGCTAG; value = 4.36 z-score
Strand = TCAGCTTTCTTTAACTCACTGTGCTAG; value = 0.847 z-score
Strand = TTAGAACTGAGTCTCGACTAGTGCTAG; value = -0.55 z-score

Other studies, line by line
Substance = PhoQ, residues 284 288 289 292 302 303 TASMAF; target = PhoP, residues 12 14 15 18 19 NMSFL (Escherichia coli, UniProt P23836); assay = Sort-seq, measured: YFP reporter; system = E. coli; setting = PhoQ-PhoP variant library, added: 10 µM Mg2+; how to read = relative to: high Mg2+ state, higher = stronger signaling; endpoint = fold induction; value = 13.5

Excerpt of the above (block 5):
Strand = ACGGGCCG; value = -0.395
Strand = GCTGCACC; value = -0.277
Strand = AAACCTTA; value = 0.18
Strand = GCAAATGC; value = -0.11
Strand = CCGCTGGC; value = -0.294
Strand = TCTACGAA; value = 0.0396
Strand = AAAGAGTG; value = -0.0256
Strand = TAATCCCA; value = 0.0626
